Assay results of several laboratories.
A part holds a random share of what one study measured.

Set 1
Target: Eukaryotic initiation factor 4A-I (EIF4A1, Homo sapiens, UniProt P60842, residues 1-406, full length assumed)
Chain of UniProt P60842 (whole entry, looked up): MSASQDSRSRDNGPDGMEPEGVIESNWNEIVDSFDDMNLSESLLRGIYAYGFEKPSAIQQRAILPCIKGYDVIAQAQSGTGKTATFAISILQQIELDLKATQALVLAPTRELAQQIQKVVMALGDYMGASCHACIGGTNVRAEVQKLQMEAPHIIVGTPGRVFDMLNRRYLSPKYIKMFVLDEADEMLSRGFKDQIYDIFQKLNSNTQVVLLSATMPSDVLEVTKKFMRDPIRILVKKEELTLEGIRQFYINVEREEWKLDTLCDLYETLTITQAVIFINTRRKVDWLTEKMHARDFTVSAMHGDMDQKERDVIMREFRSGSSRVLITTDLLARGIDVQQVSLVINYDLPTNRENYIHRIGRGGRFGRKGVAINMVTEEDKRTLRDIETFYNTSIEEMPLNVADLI
Technique: RNA Bind-n-Seq
Form: RNA
Matrix: in vitro
Tested at: 15 pmol
Notes: 4-mer, random 30-nt RNA, single round
Together with: 3 µM DMDA-PatA, 2 mM AMP-PNP
Reference: input library
Reading: higher = stronger binding
Endpoint: 4-mer enrichment
GCGU: 1.14 fold
GGAC: 0.874 fold
CUAU: 0.974 fold
UGCA: 0.944 fold
GGCG: 1.02 fold
GAGU: 1.35 fold
UACC: 0.517 fold
CAGA: 0.631 fold

Set 2
Target: Interferon regulatory factor 5, full length, phosphomimetic (IRF5, Homo sapiens, UniProt Q13568-2, residues 1-514, S451D/S453D/S456D/S462D)
Technique: protein-binding microarray
Form: double-stranded DNA, one strand shown
Matrix: in vitro
Tested at: 940 nM top
Notes: 60-bp whole probe
Together with: salmon DNA 0.4 mg/ml
Reference: random background probes
Reading: higher = stronger binding
Endpoint: fitted relative affinity
Constant ends, left off below: GCCTAGCAC … GTCTTGATTCGCTTGACGCTGCTG
CTAGGACTGCTTATCCTTTAGTGCTAG: -0.359 z-score
TTAGGTATCAACTTTCGGTTAGTGCTA: 3.76 z-score
ACTCGTGTTTTTCTCCTATTGTGCTAG: 1.37 z-score
AACGGTATCGGTCTCGGGACGTGCTAG: 8.42 z-score
TCATTTTAAAGTTTCAGACTGTGCTAG: 0.574 z-score
TCATTCCTGAAATCTCTTACTGTGCTA: 0.863 z-score
GACGGTATCCTTCTCCTGAGGTGCTAG: 0.251 z-score
TTTACTCTCTACATGGGTATGTGCTAG: 1.62 z-score

Set 3
Target: Hepatocyte nuclear factor 3-alpha (Foxa1, Mus musculus, UniProt P35582, residues 1-468, full length assumed)
Technique: EMSA with sequencing
Form: double-stranded DNA, one strand shown
Matrix: in vitro
Tested at: 10 and 20 nM
Notes: whole designed probe, mean of two concentrations, ends assumed
Reference: negative control set to 0
Reading: higher = stronger binding
Endpoint: normalised bound fraction
Constant ends, left off below: GTGAGCGGTGCCCATTGATGGGGAAC … TTTCACTGGGATCGTGGGGAC
Construct (chain): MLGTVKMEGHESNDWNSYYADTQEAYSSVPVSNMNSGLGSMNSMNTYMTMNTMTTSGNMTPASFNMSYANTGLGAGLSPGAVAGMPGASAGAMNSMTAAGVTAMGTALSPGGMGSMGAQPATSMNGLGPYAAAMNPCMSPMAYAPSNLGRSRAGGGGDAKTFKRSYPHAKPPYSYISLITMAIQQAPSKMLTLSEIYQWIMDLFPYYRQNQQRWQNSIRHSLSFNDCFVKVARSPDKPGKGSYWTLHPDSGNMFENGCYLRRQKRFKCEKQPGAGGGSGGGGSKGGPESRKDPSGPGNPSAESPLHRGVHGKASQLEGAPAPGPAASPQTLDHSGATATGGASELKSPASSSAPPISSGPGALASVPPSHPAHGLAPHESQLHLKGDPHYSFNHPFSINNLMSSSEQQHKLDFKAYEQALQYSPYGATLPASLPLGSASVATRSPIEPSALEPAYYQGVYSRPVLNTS
ATCTTCCCCCTCTTCCTTGCCCCACCAGCTCACCTTCCCGGGTATCTGCAAATAAGTATTTATTTTCAAGCCGGCATTCGTTAACCCTCTTCTGGCGCAAACTGCTGTTTGCTCTGGATGAATCATGGTCCTTTGGCGACGCCAGGCTCCGGGAGAGCAAAGCACCGTGTCAGGGCCATGATCCGGGGTGGCC: 0.21 ratio
TGAGGCCATTAATTATAGTGAGACGTATTATAAGATTATTTTCTTCTCCTTTGAGTACTATTTTCATCTCCTTCAAGTTTTTTCTTTCCAGATAGATTATTCTGTTCTCTGTGCTTCATGACAGGTCCTTTCCCACATGGCTTGATGTGTGGCTGGCTGTTCATTTTTAGGAGTGAGGCATTATAAACAGGCC: -0.061 ratio
CTCCAGGGTAGTTGTCCTTCCTGTGGCTGCTCACTGATCCAGGCTACTTTGATCTTGTGACTCAAAGTTCAACAAAATGTGGATGCGTCATTTAAATTACACTTCAATGGCCAGAACTTACGAAATGGCCTCATCCAGTTGCAAGAAGTTTGGGAAATGTAGCCTTCCATATTTACAGGAATAAATGAAAAAC: 0.0319 ratio
GGAATCTCCGGATGCTCTGCATTCTTAGCATTCTAACAACTTCTTATTTTTCCCTTGCAGAGTTGCCCAAATAGGGACACATCTAGACTTGTTGTTTACATAGCTCTGGGCCGGCTGACTGGCAAACCCCGGATGGAGGGTGCAGACAATTGGCACAGGGCAGAAGGGGTCAGGCCACCGGCAGGAGTGCAGG: 0.464 ratio
AATATTTCAAACACTACGTACCCCAACTGACATTTGAGTAGCAGTTAAGTTCTTGGAACGCTGCCATTTTGATCTGTTACGTAACAGCTCATTGTAAACAGGATGAAATAGGGCAGTTAAAAGACTAATGGTCAGTGAAATCTACAACAGGAATGGAAAGAATTTTCCCCTTAAAAATTTGGAAATCCTTATT: 0.0681 ratio

Single results of other studies
COc1cc(-c2nc3c(c(=O)[nH]c(=O)n3CC(C)C)n2CC(C)C)cc(OC)c1OC
remaining compound (mouse, microsomes or S9; 2 µM, 0.5 h): 49.3%

Repeated from above (set 2):
CTAGGACTGCTTATCCTTTAGTGCTAG: -0.359 z-score
TTAGGTATCAACTTTCGGTTAGTGCTA: 3.76 z-score
ACTCGTGTTTTTCTCCTATTGTGCTAG: 1.37 z-score
